Published values collected from several papers.
Each numbered part is a random draw from the data of one study; scales do not carry over between parts. Positions count from the first letter of the parent shown.

Sample 1
Molecule: PhoQ, residues 284 288 289 292 302 303 SVTLVV
Method: Sort-seq
Item: YFP reporter
Matrix: E. coli
Setting: PhoQ-PhoP variant library
Together with: 10 µM Mg2+
Baseline: high Mg2+ state
Reading: higher = stronger signaling
Measurement: fold induction
target = PhoP, residues 12 14 15 18 19 LHTVL (Escherichia coli, UniProt P23836); result = 1.81
target = PhoP, residues 12 14 15 18 19 TQAML (Escherichia coli, UniProt P23836); result = 17.7
target = PhoP, residues 12 14 15 18 19 NQCAL (Escherichia coli, UniProt P23836); result = 14.3

Sample 2
Target: Histone acetyltransferase KAT6A, winged helix 1, GST fusion (KAT6A, Homo sapiens, UniProt Q92794, residues 1-85)
Method: protein binding microarray
Molecule type: double-stranded DNA, one strand shown
Matrix: in vitro
Tested at: not given
Setting: 8-mer, flanks averaged, mean of 2 arrays, mostly near background
Baseline: not given
Reading: higher = stronger binding
Measurement: E-score
Target sequence (chain): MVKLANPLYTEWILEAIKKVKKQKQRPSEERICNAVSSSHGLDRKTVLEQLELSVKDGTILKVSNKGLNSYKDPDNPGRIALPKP
Oligonucleotide = CGGTGATA; result = 0.0926
Oligonucleotide = ACACCGTG; result = 0.256
Oligonucleotide = CTCGTCTA; result = -0.0936
Oligonucleotide = ATACGTCA; result = 0.0526
Oligonucleotide = TAGCCCAA; result = -0.0865
Oligonucleotide = ACTAAACG; result = -0.0728
Oligonucleotide = TGATCCAA; result = -0.17
Oligonucleotide = GAGTGTAC; result = 0.00654
Oligonucleotide = ATCGAGCA; result = -0.221
Oligonucleotide = ATTGTGAG; result = -0.197
Oligonucleotide = ACGGAAGG; result = 0.169
Oligonucleotide = ATGTGGAC; result = -0.0787
Oligonucleotide = ACTACTTC; result = -0.02
Oligonucleotide = CAAATATG; result = -0.0198
Oligonucleotide = GACCGCGC; result = 0.397

Sample 3
Target: ABI1, truncated, D143A, DHFR fusion (Arabidopsis thaliana)
Method: DHFR PCA, deep sequencing
Matrix: yeast
Setting: methotrexate growth selection, single substitutions
Together with: (+)-ABA 1.4 µM
Baseline: wild-type fitted maximum
Reading: higher = stronger binding
Measurement: relative binding score
Parent: PYL1, truncated, DHFR fusion (Arabidopsis thaliana); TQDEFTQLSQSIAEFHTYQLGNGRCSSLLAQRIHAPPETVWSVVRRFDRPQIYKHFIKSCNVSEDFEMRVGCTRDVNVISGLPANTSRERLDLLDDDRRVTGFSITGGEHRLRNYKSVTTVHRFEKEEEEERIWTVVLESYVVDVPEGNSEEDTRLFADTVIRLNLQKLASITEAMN
Variant = K168P; result = -3.5%
Variant = R113A; result = 47.8%
Variant = S80Q; result = -3.23%
Variant = L20M; result = 44.3%
Variant = Q2V; result = 74.5%
Variant = E109N; result = 66.4%
Variant = E64K; result = 60%
Variant = N114F; result = -7.72%
Variant = R132E; result = 90.3%
Variant = V161C; result = 39.1%
Variant = P37I; result = 29.1%
Variant = E151I; result = 41.3%
Variant = E64N; result = 53.5%
Variant = Y18Q; result = 15.1%
Variant = E139C; result = 42.2%
Variant = R32I; result = 41.7%

Sample 4
Target: CCND2, cyclin fold, Cln2 fusion (human)
Method: yeast growth competition, sequencing
Matrix: yeast
Setting: weak parent motif
Baseline: not given
Reading: higher = stronger binding
Measurement: normalised enrichment score
Parent: RP1L1 docking peptide (human); TLGLGPLSFTLED
Variant = D13A; result = -0.00563
Variant = G3A; result = -0.15
Variant = E12A; result = 0.125
Variant = P6A; result = -0.0615
Variant = L4A; result = 0.176
Variant = T10A; result = 0.472

Excerpt of the above (sample 3):
Variant = E151I; result = 41.3%
Variant = E64N; result = 53.5%
Variant = Y18Q; result = 15.1%
Variant = E139C; result = 42.2%
